Experimental data collected from several papers.
Each numbered part is a random draw from the data of one study; scales do not carry over between parts.

Sample 1
Target: Histone acetyltransferase KAT6A, winged helix 2, GST fusion (KAT6A, Homo sapiens, UniProt Q92794, residues 85-181)
Technique: protein binding microarray
Molecule type: double-stranded DNA, one strand shown
Medium: in vitro
Concentration: not given
Notes: 8-mer, flanks averaged, mean of 2 arrays, mostly near background
Reference: not given
Direction: higher = stronger binding
Residues (chain): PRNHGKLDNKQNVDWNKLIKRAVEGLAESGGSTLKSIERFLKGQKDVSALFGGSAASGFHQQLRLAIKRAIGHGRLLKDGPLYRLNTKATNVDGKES
| Oligonucleotide | E-score |
| --- | --- |
| CCAATAAG | 0.0167 |
| CGAGGATC | 0.0587 |
| GTACCCAC | 0.00889 |
| GCCGCCAC | 0.0994 |
| CCCACTCA | -0.00485 |
| GCTTTCTA | 0.15 |
| ATCCCACC | 0.0476 |
| CGTCGTAC | -0.077 |
| TAGCTCAA | -0.00274 |
| AACGCGTA | -0.112 |
| ATAACCGC | 0.0135 |
| CACCTACG | -0.143 |
| CGAATGAA | -0.0281 |
| ACCTGTGG | -0.155 |
| CACCGTGC | -0.0194 |
| CGTTGGGA | 0.0212 |
| CAGCATAG | 0.0459 |
| AGTGCAAG | 0.0546 |
| TACTTTAA | -0.206 |
| GATGAGGA | -0.0721 |
| ACACACCA | -0.0532 |
| CCTAAGTC | -0.129 |
| AAGCCGAT | 0.143 |
| GCTGTGCC | 0.227 |
| GGTGTTCA | 0.0342 |

Sample 2
Target: RNA binding protein fox-1 homolog 2, RRM domain, GST-SBP tag (RBFOX2, Homo sapiens, UniProt O43251-10, residues 100-194)
Technique: RNA Bind-n-Seq
Molecule type: RNA
Medium: in vitro
Concentration: 365 nM
Notes: natural RNA segment, single round, ends assumed
Reference: no-protein control
Direction: higher = stronger binding
Constant ends, left off below: GGGAGUUCUACAGUCCGACGAUC … UGGAAUUCUCGGGUGCCAA
Construct (chain): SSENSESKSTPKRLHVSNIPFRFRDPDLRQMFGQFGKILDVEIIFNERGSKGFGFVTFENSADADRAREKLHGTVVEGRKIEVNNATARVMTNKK
| Oligonucleotide | RBNS enrichment (R) |
| --- | --- |
| CAUAAACAGCACUUUCAGGCUACAUUUUAAAGUUCUAACGGAAAACUACAUUUGUCUAAGAUAUCUCUGCUAUUGACACAUGAUGCCUUUGAAUGUCAUAGAGCAUAUUU | 1.15 |
| AUUUCUCUGACAAGACAAAGUAGAUAUUUUAUACCAGGGGUUGGCAAACUACUGCCCACGGGCCGAAUUUGGCCCAGUCUGUUUUUGUAUGGUGCAAACUAAAAAUGAUU | 0.606 |
| CAGGGAGGCUUGCCCUGUGCCAGAAAACAAGAGGCCACCAUAUGCUUCCAAGUUGACAGGCAAUUCCCACACUUCCUUCCUGUCCUGAGUGCCCCAGACUUUAACUGUGU | 0.47 |
| AUUGUCCUGGAACCUCCAGGAUCCUUGACUGAGGGCGUUGGGAUGGCUUGUAGGAUUUUUAAGAGAGUGUGUCUACAGACAAGCAUUUUCUCUGUAGAGCAGCCACACGU | 0.309 |
| ACCUGUACAAGAGACCCGGCCACUCCACUCCCUCCUGUGACCUGGACCUCUCCCUGACUUCCUAACACUUAUUAAUUUAUGAAACUGUUUUUCUCAGCGCAGUUUUGUUC | 0.907 |
| CAAGCUAGAUUUCCGACAGCAUUAUUCUGAGAGCUGGCUACCAUUACCCUUCUUGCUAUUGGAAACUCAGCACAUUUGAACUUGGGUUUGAUUCAGUAUUAACAGAUCUU | 7.75 |
| UCCAUCCUAGACCUGCCCCAGUGCCCAGCAGUCACCCUUCCCCUCUAGCUACAGAGUCCAGGCCACUGGACCAGCCAACAUCUGGGCUGCUGCAGGGAGGCCUGGCCUAU | 0.593 |
| GACUUAACCAAAUCUGAGUGCCCCGGAUGGAGUUGAGCUCUGCAGGUCAGCUAACUCUAGCUCAGGUUUGAGAACUCCUGUUGAGAAGAAGUGUGAGAUUUCUGCUUAAG | 0.764 |
| AGGCAGCAUUUAAGCGGGAUCCUUAGCAAGACAGAAUCCAGCAAAACCCUUUCCCCUCUCAAGCCAGGAGUCUCAUCUGCUACAUUUUUUUUAACCACCUCUGAUUUCCA | 1.97 |
| GCCAGGAGGACUCCAGCCGGUGCUCAGAUAACUCCAGCUAUGAGGAGCCCUUGUCACCCAUCUCAGCCAGCUCGUCCACCUCGCGACGGCGCCAAGGCCAGAGGGACCUG | 0.395 |
| UUCCCUGAUGUCACACCCCACUUCCCGUCUCCCUGCACCCUGGGGCUUGAGACUGGUGUCUGUUUCAUCGUCCCAGGACACGGCAAAUGAAGUCAGAACAGAAGGAGGAC | 0.326 |
| CACACCCUGCAGGCAAAAGAAACCCCCAGCUUCCCCCCUCCCCGGGAGCCAGGUGGGAAAAGUGGGUGUGAUUUUUAGAUUUUGUAUUGUGGACUGAUUUUGCCUCACAU | 0.552 |

Sample 3
Target: Phosphate system positive regulatory protein PHO4, full length, GST-tagged (PHO4, Saccharomyces cerevisiae, UniProt P07270, residues 1-312)
Technique: competition protein-binding microarray
Molecule type: double-stranded DNA, one strand shown
Medium: in vitro
Concentration: 2 µM
Notes: whole 60-bp probe, lowest competitor level
Together with: Cbf1 competitor, 0.05 µM
Direction: higher = stronger binding
Constant ends, left off below: … GTCTTGATTCGCTTGACGCTGCTG
Construct (chain): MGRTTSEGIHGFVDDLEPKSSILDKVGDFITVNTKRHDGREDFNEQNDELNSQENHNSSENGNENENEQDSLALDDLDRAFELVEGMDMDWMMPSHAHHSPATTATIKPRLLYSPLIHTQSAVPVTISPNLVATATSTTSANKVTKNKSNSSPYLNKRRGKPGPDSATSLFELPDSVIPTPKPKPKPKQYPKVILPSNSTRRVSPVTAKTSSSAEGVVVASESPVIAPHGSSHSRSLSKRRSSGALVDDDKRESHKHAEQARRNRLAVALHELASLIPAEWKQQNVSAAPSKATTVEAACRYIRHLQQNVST
| Oligonucleotide | fluorescence intensity [a.u.] |
| --- | --- |
| CGGGGTTAAGTTTGAACCGTGGGTGGCTTGCAGCAG | 7460 |
| GGAGACGTCGCCTTTCTCGTGAAGGCTGGCGGGGTA | 2880 |
| TTTGATCTGGTCTCAAACGTGTATCTGTGGGGGGTA | 7730 |
| CTAACGAAGGTTTGCAGTGTGGGTGACAAGCCAAGT | 5740 |
| TGCGCAACAACTTGTCACAGCACTTTATGTCTAGAA | 3210 |
| GTCTTGTCTCATTGGTCAGTGGGTGTCCCCACTTCA | 5060 |
| CATACCCAACCTTTTCACGTGTTTTAAGATATTTGT | 15700 |
| CTCTAATCCCACTACCACATGCCATACTCACCTTCA | 12100 |
| CTTCGTCTCTAACTAAACGTGCTAAAGTGTAAAACG | 13800 |
| AAATTACTAAGTTGAAGCGTGGGTGACGCCGTATGA | 8010 |
| ATAAGAAGTGTTTGGAACGTGCAAATCTTTCATAAC | 13100 |
| GAATGCAAACCCCATCACGTGAAATAGAGAACAATC | 11600 |
| CACTAGCTCGGTTTAGTTGTGACGGGTCTGCTGTAC | 3960 |
| ACTAATGAATTGGTCCACGTTTAGCTTACTTCCCGA | 12400 |
| CATACCCAACCTTGGAGAGTGGGTGAAGATATTTGT | 4020 |
| GTCTTGTCTCATTTTCACGTGAGTTTCCCCACTTCA | 9760 |
| CGTCCTAGCGATTGACGCGTGGGTGCCATGAGGAAG | 10600 |

Sample 4
Target: RING finger protein unkempt homolog, zinc fingers 1-6, GST-SBP tag (UNK, Homo sapiens, UniProt Q9C0B0, residues 30-357)
UniProt Q9C0B0, sequence (30-357, looked up): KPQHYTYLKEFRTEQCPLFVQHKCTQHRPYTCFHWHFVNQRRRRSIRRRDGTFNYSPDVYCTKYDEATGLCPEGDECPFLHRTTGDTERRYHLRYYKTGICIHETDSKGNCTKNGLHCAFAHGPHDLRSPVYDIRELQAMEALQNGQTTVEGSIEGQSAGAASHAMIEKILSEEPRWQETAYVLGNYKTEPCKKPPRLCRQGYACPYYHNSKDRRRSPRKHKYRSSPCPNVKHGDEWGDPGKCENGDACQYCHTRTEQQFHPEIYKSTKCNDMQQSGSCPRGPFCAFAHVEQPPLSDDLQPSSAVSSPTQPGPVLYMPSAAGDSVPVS
Technique: RNA Bind-n-Seq
Molecule type: RNA
Medium: in vitro
Concentration: not given
Notes: RNA with constant flanks, human-mouse chimeric sites, ends assumed
Reference: input RNA pool
Direction: higher = stronger binding
Constant ends, left off below: GGGAGUUCUACAGUCCGACGAUC … CAACAGAGGAUUGAGCAUCA
| Oligonucleotide | bound/input enrichment |
| --- | --- |
| CCAAUUGUGGAGCAGUACUUGAAGACAAAGAAAAAUUCUAAUAAUUUAAUCAUCAAGUACAUUAGCUGCCGCCUGCUGACAUUUGUGAUUAUACUGUUAGCGUGUAUCUACCUGGGCUAU | 0.311 ratio |
| AGUGUGCAGGAAUUCAUGACCUUUACAAGUCAACUGAUUGUGGAACGCUCGGGGAAAGGCAGCAGAGCUUCUGUCAAAGAACAAGACUAUCUUUGCCAUGUCUACGUCCGGAGCGACAGU | 0.124 ratio |
| UGUAGUUUCUUGAUUUAUCAUUUUUCUCUUUUCUUUCUUUCCUUUAGGAAAAGCCUAAAGAUUAGACUGUAAGAAAAACAGAAGCCAUGUUUCGAAGACCUGUGUUAAUUACAGGUAGUC | 0.147 ratio |
| AAAGAGAAUGGAGAUGUAAAGAUUUUACUGAAAAGUGGGAAGGAGAAACCAAAAACAAAUAUAGAAGACUUACAAAUUAAAAAAGUAAAGAAGAAAAAGAAAAAGAAACACAAAGAGAAU | 13.2 ratio |
| AGAUUCCCUCUCUUAAAACCUCCUCCGAAGUUGGAGUCUCUUACAGAUGCCUCAUCCCCUGUUAGCGUUUUAGUUUGGACCACCCAGCCUUGGACAAUUCCCGCCAAUGAAGCUGUUUGC | 2.31 ratio |
| AAAGUGAUGACUAUGUUUGUACAGCGACAGGUAUUUUCGGAGAGCAAAGAUGAGAUUGCGUUAGUCCUCUAUGGCACAGAUGGCACUGACAAUCCCCUUGCUGGCAAGGACCAGUAUCAG | 0.206 ratio |
| CUGGCCUGGCCCUCCCCAGGGGCCUCCUUUCGUAUAGUCACUGCUUCUGCUACGGAUACUUUCAGCUGCAACUCCCUACUGGGUGGGGCACCCAUUUCAGGCAGAAGGUUUUGGUACCCU | 0.229 ratio |
| GUAUACGGUUAUCGAGGAAAGGACUGUAGAGCGAAUGUUUACCUUCUUCCCACAGGGGAGAUAGUUUAUUUCAUUGCCUCAGUGGUAGUCCUGUUUAAUUAUGAGGAGAGGACUCAGCGA | 0.328 ratio |
| GGUGGGGUGGUCAUUGCCGUUUGAGCUCUGCUGAUUCAUGAGUCGCCCAUUCAGAACUCGUGUAGGGUUGACAAUGUGGGGGGGUGGGGGAUCCAGCUUAUUCUUUUAUUUUCAAGUCCA | 0.958 ratio |
| UCAUUUUUCUCUUUUCUUUCUUUCCUUUAGGAAAAGCCUAAAGAUUAGGUUGUAAGAAAAACAGAAGCCAUGUUUCGAAGACCUGUAUUACAGGUAUUUCGUCAGUUUGUAAGACAUGAG | 0.186 ratio |
| AGAAUCUUGGGACUGUUUUGCUUGAUUGGUCAUUGAUAUCUCAACAAACAUGGAGAUAAGAUUAGAAAUCUUGACAUCAACAGGUAUUAAGCAGAAAAAACCAUGGCCACGUGUCUCCUG | 0.141 ratio |

Sample 5
Target: Sal-like protein 4, full length isoform B (SALL4, Homo sapiens, UniProt Q9UJQ4-2, residues 1-616)
Technique: universal PBM
Molecule type: double-stranded DNA, one strand shown
Medium: in vitro
Concentration: not given
Notes: 8-mer, flanks averaged, mean of replicates
Direction: higher = stronger binding
| Oligonucleotide | E-score |
| --- | --- |
| GTCAGATA | 0.0621 |
| ACACTCTG | -0.0121 |
| CCTGGTGC | -0.289 |
| AGAGACCC | -0.165 |
| CGCCAGAC | -0.201 |
| CGTTAACA | 0.0434 |
| CGATTGCC | -0.145 |
| TCTATGCA | 0.226 |
| TAAAAACA | 0.308 |
| AAGTGTCA | 0.00046 |
| CTCTCCAC | -0.0311 |
| GCTTGCCC | -0.329 |
| TCCGGTAA | 0.0131 |
| CGGTTACC | -0.272 |
| CTATCCAG | -0.0517 |
| ACCTAAGA | 0 |
| ACGGCATG | -0.0131 |
| TAATCTGA | 0.173 |
| CAACAGAC | -0.00949 |
| ATCCAGTC | -0.0967 |
| GACTACAA | 0.0546 |
| CACCCTAA | -0.00205 |
| CAGCCATG | -0.0997 |
| CTTACCGA | -0.0107 |
| GTCAATTA | 0.222 |

Repeated from above (sample 1):
| Oligonucleotide | E-score |
| --- | --- |
| ACCTGTGG | -0.155 |
| GTACCCAC | 0.00889 |
| CCCACTCA | -0.00485 |
| CGTTGGGA | 0.0212 |
| ATAACCGC | 0.0135 |
